Measured values pooled from the literature.
Numbered parts are unrelated; each lists some results of a single study. Substitutions count along the parent as printed.

Study 1
Target: CCND3, cyclin fold, Cln2 fusion (human)
Technique: yeast growth competition, sequencing
Matrix: yeast
Setting: weak parent motif
Baseline: not given
Reading: higher = stronger binding
Quantity: normalised enrichment score
Starting sequence: SCAPER docking peptide (human); SNARRSLNFGGST; partner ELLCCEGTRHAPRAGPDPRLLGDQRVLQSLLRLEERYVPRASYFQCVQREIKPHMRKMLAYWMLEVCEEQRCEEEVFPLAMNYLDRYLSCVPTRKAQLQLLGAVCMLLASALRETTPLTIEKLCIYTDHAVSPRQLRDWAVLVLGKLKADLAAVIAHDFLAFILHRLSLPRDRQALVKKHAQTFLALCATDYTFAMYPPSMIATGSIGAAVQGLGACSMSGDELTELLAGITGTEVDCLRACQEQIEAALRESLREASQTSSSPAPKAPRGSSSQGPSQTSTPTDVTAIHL
N8K: 0.167
S1N: 0.0916
G10T: 0.118
G10W: 0.224
G10M: 0.142
R5K F9L: -0.0117
R5E: 0.126
A3H: 0.146
G11D: 0.17
F9K: 0.116
A3W: 0.0912
F9E: 0.0197
A3C: 0.0856
L7R: 0.103
S1E: -0.0137
N2Q: 0.125
L7A: 0.262
S6N: 0.102
G10L: 0.123

Study 2
Target: Interferon regulatory factor 5, full length, phosphomimetic (IRF5, Homo sapiens, UniProt Q13568-2, residues 1-514, K96S/S451D/S453D/S456D/S462D)
Technique: protein-binding microarray
Form: double-stranded DNA, one strand shown
Matrix: in vitro
Tested at: 250 nM
Setting: 60-bp whole probe
Added: salmon DNA 0.4 mg/ml
Baseline: random background probes
Reading: higher = stronger binding
Quantity: log fluorescence
Shared flanks, not repeated: GCCTAGCAC … GTCTTGATTCGCTTGACGCTGCTG
TTAGGACCGGGTTTCGGTTAGTGCTAG: 7.6 z-score
GACGGTATCGGTCTGGGGACGTGCTAG: 5.64 z-score
GACCGTATCGGTTTCGGGACGTGCTAG: 8.69 z-score
TCATTTTTAATGAATGAAACTGTGCTA: 1.21 z-score
TTAGGACTGCGTTTCGGTTAGTGCTAG: 7.1 z-score
TTAGGGATCGGGACTGGGTTAGTGCTA: -0.224 z-score
TAGAAATTTTTTTTCTAACTGTGCTAG: 0.604 z-score
TGAGATTCCAGTTTCGATTAGTGCTAG: 9.83 z-score
TTAGATCTCAGTCTCGCTTAGTGCTAG: 0.295 z-score
GGCTGTTTGGTTCTGATCCTGTGCTAG: -0.33 z-score
TCAATGGTCCTGGTTTCAACTGTGCTA: 0.644 z-score
GACGGACTGCTTATCCTGTCGTGCTAG: -0.0365 z-score
TCAAATCTGTGTTATTAAACTGTGCTA: 0.728 z-score
GCAGGGCAGGCAGGCTGAGGGTGCTAG: -1.38 z-score
AAAAAAAATGGAAATCTACCCGTGCTA: 0.351 z-score
GATGGTTTCCTTTCCCTGACGTGCTAG: 1.45 z-score
TTAGATATCCGTTTCGATTAGTGCTAG: 7.47 z-score
TTAGGTCTCGGACTGGGTTAGTGCTAG: -0.171 z-score
GACCGTTTCGGTCTCGGGACGTGCTAG: 8.82 z-score
TCAGGTTTCCTACTGCTTTAGTGCTAG: 0.276 z-score
TTAGGTTTCGACGATCGGTTAGTGCTA: 6.13 z-score
TTAGGTATCGGACTGGGTTAGTGCTAG: 1.62 z-score
GACGGTTTCGGTATCGCGACGTGCTAG: 9.37 z-score
GAATGTAACTCCTATCCAAGTGTGCTA: 0.35 z-score

Study 3
Target: RING finger protein unkempt homolog, zinc fingers 1-6, GST-SBP tag (UNK, Homo sapiens, UniProt Q9C0B0, residues 30-357)
Technique: RNA Bind-n-Seq
Form: RNA
Matrix: in vitro
Tested at: not given
Setting: RNA with constant flanks, human-mouse chimeric sites, ends assumed
Baseline: input RNA pool
Reading: higher = stronger binding
Quantity: bound/input enrichment
Shared flanks, not repeated: GGGAGUUCUACAGUCCGACGAUC … CAACAGAGGAUUGAGCAUCA
Target sequence (chain): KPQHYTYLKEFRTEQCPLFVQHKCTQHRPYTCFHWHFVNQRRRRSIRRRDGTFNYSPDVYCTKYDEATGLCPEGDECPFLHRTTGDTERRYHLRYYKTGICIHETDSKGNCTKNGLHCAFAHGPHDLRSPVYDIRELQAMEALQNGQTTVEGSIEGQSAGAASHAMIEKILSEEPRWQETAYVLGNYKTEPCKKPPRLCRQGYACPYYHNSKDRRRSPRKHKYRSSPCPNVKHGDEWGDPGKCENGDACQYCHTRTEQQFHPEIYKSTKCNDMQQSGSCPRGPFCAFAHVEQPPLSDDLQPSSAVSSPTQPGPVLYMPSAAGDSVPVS
CAGGGCAUUAUUUCUCGUGCUGUUAGACACCUGUUCAAGAGUAUUGAUGAGAAAAAGACCUCAGCGAUUAAAAACGGGCUGCCCCCUCCUGAAUUCAAAGUGAAUGCCCAGUUCCUAGAG: 0.113 ratio
UGGGCACUCUAUCAGAUAUAUUAAUUUUUAAAUGUAGAUGUAAUUUUAAAAAUGAAUGGCUACUUUACACGUUUAACUAGGGUUUUACUAUAUAUGUGUACAUAUGUAUAUAUAUAUAUA: 18.8 ratio
CAGCGCCGAGGCCGCGGUUUCCCCCUGGGCCUCCCCAGCAGCAGCCAUGGGCAUCAAGUUUUUAGAAGUUAUCAAACCAUUCUGUGCAGUUCUACCAGAAAUUCAGAAACCGGAAAGGAA: 1.16 ratio
CUGUGUGUGCUGAAUAAUGAUUUGUGAAAGAAGUUUUUCCAAGCUGUAACCCAUGCUGUUAUUAUAGUUGCUGCAAAAUGUUCUUCCUAUUGAUGUUUUUAUUUGUUAACUGAAGGUCUC: 0.239 ratio
GAAUCCUACUCAGGCGGAUUUUGCAACACCAAGCUCACAGCAGCAGCUCCAUAGUCACAGUAGGGUAGUUUUGGGGCUCUGUGGCCAGGGUUUUAUUCAUGUGCAGGUUUGGAAAAUGUA: 0.639 ratio
CAACCUCAGAGCCCAGACUUCCUGGACAUUACCAACCCUAAAGCGGUAUUAGAAAAUGCAUUGAGAAACUUCGCCUGUCUGACGACUGGAGAUGUGAUUGCUAUCAACUACAAUGAGAAG: 0.483 ratio
CUUAUGGCUGCAGAAACAGGAAGUGGAAAAACUGGUGCAUUUAGUAUUCCCGUUAUCCAGAUAGUUUAUGAAACUCUGAAAGACCAACAGGAAGGAAAGAAAGGGAAAACAACUAUUAAA: 0.971 ratio
AACAUUUUGUCAAAUUGUUAUGUUCCUAAAAACGUAGUGAACACUCUGAUACACUUCAUCUGCUUGUACAUCUGUAUGAUAGAGAAAUGUAAAUAUGUUAAUCCAAGCAAUGUGUCACUU: 0.239 ratio
CACACACUCUUCUGUGGGACCCUCAUCUUGCAGGCCCGGGCCUAUGUGGGACCGCACGUCCUGGCAGUGGUGACCCGCACAGGGUUCUGCACAGCCAAAGGGGGCCUGGUGAGCUCCAUC: 0.0732 ratio
AUCAAAUAUUUUGGGGAUAUUAUUAGCGUGGGACAGAGACUGUUGCAAGGAGCUCGGAUCUUAGGGAUUCCAGUUAUCAUAACGGAACAAUACCCCAAAGGACUUGGCAGCACCGUUCAA: 0.302 ratio
GGAAUUGCUGAUUCAAGUAAGUUUGAGUAUCACAAUGUUAGCUUUCUAAUUCCAUAAAAGUACUUGGUUUUUACAGUUUAUAAUCUGACAUCACCCCAGCGCCAUUUGUAAAGAGCAACU: 0.39 ratio

Study 4
Target: Histone acetyltransferase KAT6A, winged helix 2, GST fusion (KAT6A, Homo sapiens, UniProt Q92794, residues 85-181)
Technique: protein binding microarray
Form: double-stranded DNA, one strand shown
Matrix: in vitro
Tested at: not given
Setting: 8-mer, flanks averaged, mean of 2 arrays, mostly near background
Baseline: not given
Reading: higher = stronger binding
Quantity: E-score
Residues (chain): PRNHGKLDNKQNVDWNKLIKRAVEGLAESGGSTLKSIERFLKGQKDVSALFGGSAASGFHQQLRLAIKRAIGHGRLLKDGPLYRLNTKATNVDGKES
CGCAGGAC: 0.0258
CAAAGCTA: 0.0506
CGAAATTC: -0.0329
ATTCGCCG: 0.318
CGCCTTAA: 0.138
CCGTCAAA: -0.0977
GCTACCAA: -0.0116
GGGAGGCA: -0.00444
CGGTATTC: 0.0191
AGAGCAAG: 0.139
GCATGAAC: 0.0834
AACGCGGC: 0.105
AACGACAA: 0.164
AACCAAGC: 0.0608
AAAACTTG: 0.13
AAATAACG: -0.0812
ACGGCAGT: 0.115
CACCTTAC: -0.0283

Study 5
Target: Sal-like protein 4, full length isoform A (SALL4, Homo sapiens, UniProt Q9UJQ4, residues 1-1053)
Chain of UniProt Q9UJQ4 (whole entry, looked up): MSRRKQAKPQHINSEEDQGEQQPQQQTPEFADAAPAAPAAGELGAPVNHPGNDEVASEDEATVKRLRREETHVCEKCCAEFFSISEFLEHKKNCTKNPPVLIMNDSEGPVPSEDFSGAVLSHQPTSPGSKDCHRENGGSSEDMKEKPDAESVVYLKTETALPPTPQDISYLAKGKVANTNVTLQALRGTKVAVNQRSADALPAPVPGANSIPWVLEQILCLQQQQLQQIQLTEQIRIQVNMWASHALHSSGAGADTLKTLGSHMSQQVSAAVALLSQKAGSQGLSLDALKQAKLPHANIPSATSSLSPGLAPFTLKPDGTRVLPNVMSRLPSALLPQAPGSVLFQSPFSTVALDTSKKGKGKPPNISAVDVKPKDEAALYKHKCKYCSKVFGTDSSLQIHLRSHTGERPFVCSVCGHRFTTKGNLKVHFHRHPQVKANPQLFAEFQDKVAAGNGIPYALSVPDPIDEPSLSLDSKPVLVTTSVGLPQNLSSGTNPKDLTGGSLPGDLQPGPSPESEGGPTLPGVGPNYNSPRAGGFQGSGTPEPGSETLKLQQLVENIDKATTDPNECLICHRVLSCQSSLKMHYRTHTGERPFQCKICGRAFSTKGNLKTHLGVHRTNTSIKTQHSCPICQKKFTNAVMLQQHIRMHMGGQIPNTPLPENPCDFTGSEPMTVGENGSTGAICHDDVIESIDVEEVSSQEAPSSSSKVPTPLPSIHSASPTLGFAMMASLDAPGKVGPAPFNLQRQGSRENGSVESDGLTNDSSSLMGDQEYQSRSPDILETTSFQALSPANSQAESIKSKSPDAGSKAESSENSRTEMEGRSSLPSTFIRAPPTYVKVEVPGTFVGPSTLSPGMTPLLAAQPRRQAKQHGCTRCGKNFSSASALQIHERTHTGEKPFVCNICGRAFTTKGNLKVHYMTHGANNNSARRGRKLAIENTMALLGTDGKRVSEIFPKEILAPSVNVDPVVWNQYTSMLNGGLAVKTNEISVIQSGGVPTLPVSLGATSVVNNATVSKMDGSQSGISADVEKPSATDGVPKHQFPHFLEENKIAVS
Technique: universal PBM
Form: double-stranded DNA, one strand shown
Matrix: in vitro
Tested at: 600 nM
Setting: 8-mer, flanks averaged, mean of replicates
Reading: higher = stronger binding
Quantity: E-score
GAAAGCCA: -0.208
CCGTCGCA: -0.205
AGGAGGTC: -0.244
CCCTCTCG: -0.275
CCTGAATA: 0.0249
ATAGTAGA: 0.287
GCCCCTAA: -0.243
AGGTAAAA: 0.184
ACCATGGG: -0.339
AGGTTCCC: -0.262
CTTCCTCA: -0.0287
TATCCGAA: 0.125
ACAATTAC: 0.301
GCTGCAAA: 0.222
CAGCATAG: 0.0833
GACGCCGA: -0.218
CTCCAAAG: -0.025
GAAGATAA: 0.283
TTAACAAA: 0.324
GAGACGTA: -0.0282
ACAAACTG: -0.101
CATCTGGC: -0.151
TACTCTAA: 0.133

Study 6
Target: RNA binding protein fox-1 homolog 2, RRM domain, GST-SBP tag (RBFOX2, Homo sapiens, UniProt O43251-10, residues 100-194)
Technique: RNA Bind-n-Seq
Form: RNA
Matrix: in vitro
Tested at: 365 nM
Setting: natural RNA segment, single round, ends assumed
Baseline: no-protein control
Reading: higher = stronger binding
Quantity: RBNS enrichment (R)
Shared flanks, not repeated: GGGAGUUCUACAGUCCGACGAUC … UGGAAUUCUCGGGUGCCAA
Target sequence (chain): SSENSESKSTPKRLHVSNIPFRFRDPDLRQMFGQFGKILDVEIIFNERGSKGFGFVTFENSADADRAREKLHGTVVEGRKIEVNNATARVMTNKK
UAAUUCAACUGAAUAAAAGUGUCACGGGUAAAGCUUUUUAACGGUUAAUUUCUGUCAAACAGUAGGUGACAAAUGGCCGAUCUUAUCAGUGUCUCUUGAGCAUCCCUUCG: 0.443
GUCAUACCCAAUGCUCAGUGGAUCAUGACCAAACUCCUGUCAUGUGGAUGCACGUGAGUGGGUAGCAGGGAGUCAGGAUCCUGCCUUCUCCAGCAACCCCUUACUGCUGU: 0.59
CUUCUCACAUGAGGUCAACUGCUAAUGCAAUCUCUACACUUCAAAAAGCACUGAUCGUUCUCCAGUUCUUGCCAAGAUCAUCCCAAGUUGGAUAUCAUCAAAACUAUCUU: 0.311
AGGGUAUCUGUUUACCUUUAAAAUGAUAAGUCUCACUCAAGAUUUUUUAUGUAUGUAUAAAUAUUUUGGUGUGCUACAAAAGCCUUUGCAAAUUAUCAGUAGUAGUUUUU: 0.625
CUGGGGCCUGAUCCACCUCUACACCAGCCCAGGAAGCCCCAUCUGUGCCUGCCCUCAGGUGGUCCACCAGUCUCCCCCUUUGGUUCCCUUCCAGUCUCUUCCCCCUUUCU: 0.742
AUGUUUUGUUCUGGAAGUUUUAUAGUUUUAGCUCUUAAAUUUGGGCCUGUGAGCUGUUUUAAAUUAAUUUUUAUAUAUGGUAUGAGGUAAAGAUCUAAAUUCCUAUGGAU: 1.01
UAAUCUUUCUGUAAGCCUCUCAAGUACUGGGAUUACAGGCAUGAACCACCAUGCCUAUAGCCACAGCAACCCAUUCUUUUGGAGGUUUUAUAGUUCUCCAUUUGUCUCAU: 0.304
UAAUAUUCCUUCUAGUCAGUGGAAAUUUGUAUUCCCAUACAAACUCAGAAUGCUAUAUUUUUAACAGCACUCCAGCAUUUUUCUUCAUGUAUCACCUUCACUGACUCCAU: 0.941
AUACUUUCUAUUUUUUUGGUCAAAUCAUGUUUAGAAACUUUGGAUGAGUUAAGAAGUCUUAAGUAUGCAGGCGUUUACGUGAUUGUGCCAUUCCAAAGUGCAUCAGAACU: 2.26
CCACAGACUUUUCAAAGCCCAACUCUACUUUUUUGAGAAUUUGUCCGUACCUACUAAUAUGCCUUAUUCUUCUUCACCUAGUGUUUUAAAAGUCCUGGGUAGAAAGAGUU: 0.465
AAGGUUUCCACAUUCGAUGAUGUCAACCUAAACCAGCAGCCAUCCCGCUUGUCCCUCUUAGGCAUUUCAGGCUUCCUUUGGGAUUUCAGGUGUCCCAUGAUCUUGAUGUG: 0.418
CUUUUAAGGCAGCAGGGAGGCCUGGGUGCGAAGCAUGUUGGCUUGGCCCUUCACGGUCCUGGAGGGAGGUGAGGCUGGCCUUGGAAGGCGUGCCCUGGAGAGGUCUUGGG: 7.22
